Measured values of several laboratories.
Each line is one published result; not all experiments were run side by side. ± marks the error that the study gave.
Nuclear receptor subfamily 2 group C member 2 ligand-binding domain: Nuclear receptor subfamily 2 group C member 2, ligand-binding domain (Homo sapiens, UniProt P49116)
Chain of UniProt P49116 (whole entry, looked up): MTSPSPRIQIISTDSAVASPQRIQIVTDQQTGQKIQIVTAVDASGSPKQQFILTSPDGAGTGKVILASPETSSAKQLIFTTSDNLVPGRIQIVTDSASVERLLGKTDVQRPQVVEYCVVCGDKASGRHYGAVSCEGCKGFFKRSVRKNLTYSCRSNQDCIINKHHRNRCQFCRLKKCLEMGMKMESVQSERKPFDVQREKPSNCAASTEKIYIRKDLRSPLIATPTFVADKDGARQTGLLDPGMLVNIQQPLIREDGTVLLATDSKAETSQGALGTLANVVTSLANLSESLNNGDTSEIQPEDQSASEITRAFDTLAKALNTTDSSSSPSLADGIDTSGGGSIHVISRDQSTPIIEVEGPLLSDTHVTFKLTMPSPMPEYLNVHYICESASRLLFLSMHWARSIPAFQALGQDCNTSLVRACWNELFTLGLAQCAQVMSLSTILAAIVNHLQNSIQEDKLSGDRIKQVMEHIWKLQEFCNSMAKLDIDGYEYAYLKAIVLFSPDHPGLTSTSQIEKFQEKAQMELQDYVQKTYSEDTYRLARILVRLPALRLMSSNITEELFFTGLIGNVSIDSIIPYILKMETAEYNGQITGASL
Chain of UniProt P52333 (whole entry, looked up): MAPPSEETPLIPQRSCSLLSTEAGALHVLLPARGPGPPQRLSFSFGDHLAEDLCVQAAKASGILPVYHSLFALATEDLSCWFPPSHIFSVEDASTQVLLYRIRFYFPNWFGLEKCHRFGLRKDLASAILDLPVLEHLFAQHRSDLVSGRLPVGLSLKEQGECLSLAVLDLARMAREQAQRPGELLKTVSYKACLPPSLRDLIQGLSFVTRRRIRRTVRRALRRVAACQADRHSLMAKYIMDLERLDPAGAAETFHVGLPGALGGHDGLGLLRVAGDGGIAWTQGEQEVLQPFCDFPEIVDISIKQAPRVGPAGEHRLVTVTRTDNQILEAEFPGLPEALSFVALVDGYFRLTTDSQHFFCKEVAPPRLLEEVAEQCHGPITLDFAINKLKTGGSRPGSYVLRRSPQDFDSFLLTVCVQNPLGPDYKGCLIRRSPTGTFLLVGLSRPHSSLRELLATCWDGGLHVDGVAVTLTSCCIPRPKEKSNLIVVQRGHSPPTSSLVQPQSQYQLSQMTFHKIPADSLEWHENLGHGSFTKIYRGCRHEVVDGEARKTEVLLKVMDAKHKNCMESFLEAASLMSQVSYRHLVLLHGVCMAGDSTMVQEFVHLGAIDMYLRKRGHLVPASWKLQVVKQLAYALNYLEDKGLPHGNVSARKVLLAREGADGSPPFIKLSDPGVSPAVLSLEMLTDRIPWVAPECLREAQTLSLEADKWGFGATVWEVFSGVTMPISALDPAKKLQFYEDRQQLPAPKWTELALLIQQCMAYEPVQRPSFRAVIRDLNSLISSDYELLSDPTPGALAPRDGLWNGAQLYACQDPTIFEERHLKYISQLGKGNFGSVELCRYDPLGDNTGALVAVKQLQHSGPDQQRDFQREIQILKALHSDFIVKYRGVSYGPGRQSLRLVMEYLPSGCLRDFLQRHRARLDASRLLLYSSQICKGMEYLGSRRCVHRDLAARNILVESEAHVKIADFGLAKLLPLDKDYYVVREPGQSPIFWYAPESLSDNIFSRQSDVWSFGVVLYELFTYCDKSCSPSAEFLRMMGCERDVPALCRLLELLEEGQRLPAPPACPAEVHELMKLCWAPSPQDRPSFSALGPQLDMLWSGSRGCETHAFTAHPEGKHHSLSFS
Chain of UniProt P0AD96 (whole entry, unmodified, looked up): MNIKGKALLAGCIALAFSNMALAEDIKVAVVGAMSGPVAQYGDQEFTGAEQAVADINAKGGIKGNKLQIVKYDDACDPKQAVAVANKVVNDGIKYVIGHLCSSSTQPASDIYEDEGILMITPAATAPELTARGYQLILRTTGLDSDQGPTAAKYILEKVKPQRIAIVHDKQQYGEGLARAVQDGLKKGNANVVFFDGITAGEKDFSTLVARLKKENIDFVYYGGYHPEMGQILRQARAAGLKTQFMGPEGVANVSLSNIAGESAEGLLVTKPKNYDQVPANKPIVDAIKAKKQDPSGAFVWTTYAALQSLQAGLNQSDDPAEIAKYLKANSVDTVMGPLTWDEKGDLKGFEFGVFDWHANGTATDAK
Chain of UniProt P51589 (whole entry, looked up): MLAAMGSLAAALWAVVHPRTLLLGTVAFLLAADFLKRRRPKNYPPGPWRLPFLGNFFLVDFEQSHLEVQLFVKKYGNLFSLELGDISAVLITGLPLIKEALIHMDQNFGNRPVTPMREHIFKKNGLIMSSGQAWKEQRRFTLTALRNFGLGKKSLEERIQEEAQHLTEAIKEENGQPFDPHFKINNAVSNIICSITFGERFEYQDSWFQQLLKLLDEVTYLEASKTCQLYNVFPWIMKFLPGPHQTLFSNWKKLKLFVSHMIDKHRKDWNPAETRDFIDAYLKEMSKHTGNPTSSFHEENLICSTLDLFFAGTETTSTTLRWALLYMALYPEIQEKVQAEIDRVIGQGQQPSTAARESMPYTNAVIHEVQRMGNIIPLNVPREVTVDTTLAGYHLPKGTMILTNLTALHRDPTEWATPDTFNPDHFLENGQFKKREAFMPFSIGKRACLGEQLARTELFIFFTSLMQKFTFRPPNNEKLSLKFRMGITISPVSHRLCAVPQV
Chain of UniProt Q15464 (whole entry, looked up): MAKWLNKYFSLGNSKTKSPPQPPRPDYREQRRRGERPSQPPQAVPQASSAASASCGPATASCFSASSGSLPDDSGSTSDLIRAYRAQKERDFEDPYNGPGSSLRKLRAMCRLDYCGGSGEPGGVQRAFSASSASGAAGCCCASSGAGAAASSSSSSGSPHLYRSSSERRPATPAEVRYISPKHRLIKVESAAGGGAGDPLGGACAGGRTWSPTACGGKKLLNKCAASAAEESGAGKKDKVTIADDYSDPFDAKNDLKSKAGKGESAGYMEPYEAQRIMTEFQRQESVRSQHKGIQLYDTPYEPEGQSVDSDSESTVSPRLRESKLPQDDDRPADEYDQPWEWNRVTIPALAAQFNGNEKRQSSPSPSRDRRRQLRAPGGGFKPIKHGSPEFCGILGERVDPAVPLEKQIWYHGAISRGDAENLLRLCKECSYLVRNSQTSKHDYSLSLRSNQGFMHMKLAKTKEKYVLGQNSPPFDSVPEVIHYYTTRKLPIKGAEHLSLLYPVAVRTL
Chain of UniProt P25440 (whole entry, unmodified, looked up): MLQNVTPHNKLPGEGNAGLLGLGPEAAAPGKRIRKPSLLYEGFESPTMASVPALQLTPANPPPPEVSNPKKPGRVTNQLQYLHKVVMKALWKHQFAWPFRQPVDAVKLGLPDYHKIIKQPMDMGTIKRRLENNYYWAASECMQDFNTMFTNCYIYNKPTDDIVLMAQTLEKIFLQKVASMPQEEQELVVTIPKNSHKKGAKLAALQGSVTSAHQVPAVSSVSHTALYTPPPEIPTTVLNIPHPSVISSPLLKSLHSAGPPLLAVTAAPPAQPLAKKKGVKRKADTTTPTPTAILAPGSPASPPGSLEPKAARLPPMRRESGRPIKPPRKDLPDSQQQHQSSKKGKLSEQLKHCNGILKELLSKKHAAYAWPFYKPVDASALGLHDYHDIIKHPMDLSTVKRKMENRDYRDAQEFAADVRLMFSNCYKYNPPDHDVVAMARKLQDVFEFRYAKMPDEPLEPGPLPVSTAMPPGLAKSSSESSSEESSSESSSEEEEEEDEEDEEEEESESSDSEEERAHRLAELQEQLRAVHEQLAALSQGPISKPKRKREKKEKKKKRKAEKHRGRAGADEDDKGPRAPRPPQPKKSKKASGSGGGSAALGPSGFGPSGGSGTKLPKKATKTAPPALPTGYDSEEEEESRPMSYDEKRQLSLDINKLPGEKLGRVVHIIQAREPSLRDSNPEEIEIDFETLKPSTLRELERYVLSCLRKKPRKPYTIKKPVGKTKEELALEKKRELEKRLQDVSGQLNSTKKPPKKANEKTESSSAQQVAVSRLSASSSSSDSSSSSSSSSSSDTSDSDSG
Chain of UniProt Q14451 (whole entry, looked up): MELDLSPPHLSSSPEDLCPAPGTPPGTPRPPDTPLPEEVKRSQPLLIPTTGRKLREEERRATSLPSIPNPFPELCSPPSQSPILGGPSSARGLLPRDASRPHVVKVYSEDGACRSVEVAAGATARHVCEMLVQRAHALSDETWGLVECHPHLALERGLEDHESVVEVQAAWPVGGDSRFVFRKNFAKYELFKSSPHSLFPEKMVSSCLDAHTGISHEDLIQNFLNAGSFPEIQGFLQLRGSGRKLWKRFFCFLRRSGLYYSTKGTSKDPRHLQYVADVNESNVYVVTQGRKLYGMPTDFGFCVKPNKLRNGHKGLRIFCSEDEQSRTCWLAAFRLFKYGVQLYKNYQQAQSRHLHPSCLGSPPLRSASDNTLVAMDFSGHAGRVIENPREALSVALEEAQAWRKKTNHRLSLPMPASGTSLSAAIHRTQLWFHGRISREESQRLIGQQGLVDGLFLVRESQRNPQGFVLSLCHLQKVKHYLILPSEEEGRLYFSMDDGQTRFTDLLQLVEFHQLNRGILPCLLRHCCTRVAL
Chain of UniProt Q13322 (whole entry, looked up): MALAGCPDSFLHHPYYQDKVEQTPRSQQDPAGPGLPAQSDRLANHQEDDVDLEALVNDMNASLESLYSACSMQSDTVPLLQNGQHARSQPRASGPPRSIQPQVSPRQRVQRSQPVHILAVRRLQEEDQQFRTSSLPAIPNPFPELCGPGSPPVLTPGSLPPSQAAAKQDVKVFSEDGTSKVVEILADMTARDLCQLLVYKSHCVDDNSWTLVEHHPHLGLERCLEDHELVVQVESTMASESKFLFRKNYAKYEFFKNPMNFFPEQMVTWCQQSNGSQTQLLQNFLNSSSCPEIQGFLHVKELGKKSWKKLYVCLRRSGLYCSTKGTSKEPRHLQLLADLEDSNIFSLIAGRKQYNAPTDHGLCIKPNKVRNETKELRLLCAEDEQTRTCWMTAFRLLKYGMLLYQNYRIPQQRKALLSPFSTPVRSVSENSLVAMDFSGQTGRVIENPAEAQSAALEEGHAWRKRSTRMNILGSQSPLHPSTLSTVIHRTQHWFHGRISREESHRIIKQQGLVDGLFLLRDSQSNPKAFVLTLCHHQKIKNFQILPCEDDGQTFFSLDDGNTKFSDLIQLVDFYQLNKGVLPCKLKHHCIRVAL

For `Cc1cn([C@H]2C[C@H](O)[C@@H](COP(=O)(O)OP(=O)(O)OP(=O)(O)O)O2)c(=O)[nH]c1=O`, the Kd was 41000 ± 4000 nM (DNA polymerase I, Klenow fragment (polA, Escherichia coli, UniProt P00582, C907S/D424A/L744C/Y766F); nucleotide incorporation, substrate, single-turnover rapid quench; together with: radiolabelled primer-template DNA).
`O=P1(NCCCl)OCCCN1CCCl` (stereo not shown) gave a Kd of 1.11 nM (Nuclear receptor subfamily 2 group C member 2 ligand-binding domain; SPR imaging).
The Kd of `O=P(O)(O)Oc1c2c(c(OP(=O)(O)O)c3c1C1CC3c3cc4c(cc31)C1CC4c3ccccc31)C1CC2c2cc3c(cc21)C1CC3c2ccccc21` is reported as ~30000 nM (Cdc25 peptide; fluorescence titration; PBS).
With `Nc1ncnc2c1ncn2[C@@H]1O[C@H](COP(=O)(O)OP(=O)(O)OP(=O)(O)O)[C@@H](O)[C@H]1O` the Kd was 26000 ± 2000 nM (matB (Rhodopseudomonas palustris, UniProt Q6ND88, C106A/K488A/Q457C/R286C); binding; MES buffer; pH 6.5).
`CN(CC(=O)O)C(=N)NP(=O)(O)O` gave a Kd of 213000 ± 77000 nM (Creatine kinase U-type, mitochondrial (CKMT1A, Homo sapiens, UniProt P12532, H99K); microscale thermophoresis; pH 7.0, H61K mutant, no substrate).
Under Kd, `CC[C@H](C)[C@H](NC(=O)[C@H](C)N)C(=O)N[C@@H](CO)C(=O)N[C@@H](CO)C(=O)N[C@@H](CO)C(=O)N[C@@H](CO)C(=O)N[C@@H](CS)C(=O)N[C@@H](CCC(=O)O)C(=O)N[C@@H](CC(C)C)C(=O)N1CCC[C@H]1C(=O)N[C@@H](CC(C)C)C(=O)N[C@H](C(=O)N[C@@H](C)C(=O)N[C@H](C(=O)N[C@@H](CCCCN)C(=O)N[C@@H](CCCCN)C(=O)N[C@@H](CCCCN)C(=O)N[C@@H](CCCCNC(=O)CCCCCNC(=S)Nc1ccc2c(c1)C(=O)OC21c2ccc(O)cc2Oc2cc(O)ccc21)C(N)=O)C(C)C)C(C)C` is recorded as “no binding” (E3 ubiquitin-protein ligase XIAP, BIR1 domain (XIAP, Homo sapiens, UniProt P98170); fluorescence polarization; 30 min, pH 7.5, together with: 20 nM FITC-labeled peptide).
`CC(C)C[C@H](NC(=O)[C@@H](NC(=O)[C@H](CO)NC(=O)[C@H](CO)NC(=O)[C@@H](NC(=O)[C@H](CC(=O)O)NC(=O)[C@H](CC(C)C)NC(=O)[C@@H]1CCCN1C(=O)[C@H](CO)NC(=O)c1ccc2c(c1)C(=O)OC21c2ccc(N(C)C)cc2Oc2cc(N(C)C)ccc21)[C@@H](C)O)C(C)C)C(=O)N[C@@H](Cc1ccc(OP(=O)(O)O)cc1)C(=O)N[C@H](C(=O)N[C@@H](C)C(=O)N[C@H](C(=O)N[C@@H](CCC(N)=O)C(=O)N1CCC[C@H]1C(=O)N[C@@H](CC(N)=O)C(=O)N[C@@H](CCC(=O)O)C(=O)N[C@@H](CC(=O)O)C(=O)O)C(C)C)[C@@H](C)O` has a Kd of 592 nM (Growth factor receptor-bound protein 10, SH2 domain (Homo sapiens, UniProt Q13322); binding).
For `Fc1ccc([C@@H]2CCNC[C@H]2COc2ccc3c(c2)OCO3)cc1`, the Kd was 2340 ± 285 nM (snf (Aquifex aeolicus, UniProt O67854, G24D/I359G/N21Y/S256G/T254S); saturation binding).
`CC(=O)N[C@H](C(=O)N1C[C@H](O)C[C@H]1C(=O)NCc1ccc(-c2scnc2C)cc1)C(C)(C)SCCCCCCNC(=O)C[C@@H]1N=C(c2ccc(Cl)cc2)c2c(sc(C)c2C)-n2c(C)nnc21` has a Kd of 35 ± 4 nM (Bromodomain-containing protein 2, BD1 (BRD2, Homo sapiens, UniProt P25440, K107A/Q101K/V106E); binary binding, ITC; 25 °C, BD1 KEA mutant titrated).
The Kd of `CC[C@H](C)[C@H](NC(=O)c1ccc2c(c1)C(=O)OC21c2ccc(N(C)C)cc2Oc2cc(N(C)C)ccc21)C(=O)N[C@@H](CCCCN)C(=O)N[C@@H](CCC(=O)O)C(=O)N[C@@H](CC(=O)O)C(=O)N[C@@H](CO)C(=O)N[C@@H](Cc1ccccc1)C(=O)N[C@@H](CC(C)C)C(=O)N[C@@H](CCC(N)=O)C(=O)N[C@@H](CCCNC(=N)N)C(=O)N[C@@H](Cc1ccc(OP(=O)(O)O)cc1)C(=O)N[C@@H](CO)C(=O)N[C@@H](CO)C(=O)N[C@@H](CC(=O)O)C(=O)N1CCC[C@H]1C(=O)N[C@H](C(=O)NCC(=O)N[C@@H](C)C(=O)N[C@@H](CC(=O)O)C(=O)O)[C@@H](C)O` is reported as 862 nM (SH2 domain-containing adapter protein B, SH2 domain (SHB, Homo sapiens, UniProt Q15464); binding).
`Nc1ccn([C@H]2C[C@H](O)[C@@H](COP(=O)(O)OP(=O)(O)OP(=O)(O)O)O2)c(=O)n1` gave a Kd of 6600 nM (DNA polymerase I, Klenow fragment (polA, Escherichia coli, UniProt P00582, C907S/D424A/L744C); substrate, single-turnover chemical quench; together with: dNTP).
The Kd of `CCC1=C[C@@H]2CN3CCc4c([nH]c5ccccc45)[C@@](C(=O)OC)(C2)[C@@H]13` is reported as 0.0818 nM (Nuclear receptor subfamily 2 group C member 2 ligand-binding domain; SPR imaging).
`CC1=NN(c2cccc(Cl)c2)C(=O)/C1=C\c1cn(-c2nc(N3CCOCC3)nc(N3CCOCC3)n2)c2ccccc12` gave a Kd of 5210 nM (Prostaglandin G/H synthase 2 (PTGS2, Homo sapiens, UniProt P35354); binding, UV-vis spectroscopy, Benesi-Hildebrand; pH 7.4; higher = stronger binding).
`CSCC[C@H](NC(=O)[C@H](CC(=O)O)NC(=O)c1ccc2c(c1)C(=O)OC21c2ccc(N(C)C)cc2Oc2cc(N(C)C)ccc21)C(=O)N[C@@H](CO)C(=O)N[C@@H](CCCCN)C(=O)N[C@@H](CC(=O)O)C(=O)N[C@@H](CCC(=O)O)C(=O)N[C@@H](CO)C(=O)N[C@H](C(=O)N[C@@H](CC(=O)O)C(=O)N[C@@H](Cc1ccc(OP(=O)(O)O)cc1)C(=O)N[C@H](C(=O)N1CCC[C@H]1C(=O)N[C@@H](CCSC)C(=O)N[C@@H](CC(C)C)C(=O)N[C@@H](CC(=O)O)C(=O)N[C@@H](CCSC)C(=O)N[C@@H](CCCCN)C(=O)N[C@@H](CC(=O)O)C(=O)O)C(C)C)C(C)C` gave a Kd of 543 nM (SH2B3, SH2 domain (Homo sapiens, UniProt Q9UQQ2); binding).
`CC[C@H](C)[C@H](N)C(=O)O` gave a Kd of 200 nM (livJ (Escherichia coli, UniProt P0AD96, Q172C); fluorescence titration).
With `CC[C@H](C)[C@H](NC(=O)[C@H](CC(=O)O)NC(=O)[C@H](C)NC(=O)[C@H](Cc1ccc(OP(=O)(O)O)cc1)NC(=O)[C@H](CCCCN)NC(=O)[C@@H](NC(=O)[C@H](CC(=O)O)NC(=O)CNC(=O)[C@H](CCCCN)NC(=O)[C@H](CCSC)NC(=O)[C@H](CC(=O)O)NC(=O)[C@H](CC(C)C)NC(=O)[C@H](CCSC)NC(=O)c1ccc2c(c1)C(=O)OC21c2ccc(N(C)C)cc2Oc2cc(N(C)C)ccc21)C(C)C)C(=O)N[C@@H](CCC(=O)O)C(=O)N[C@@H](CO)C(=O)N[C@@H](CO)C(=O)N[C@@H](CC(N)=O)C(=O)N[C@@H](CC(=O)O)C(=O)O` the Kd was 638 nM (Growth factor receptor-bound protein 7, SH2 domain (GRB7, Homo sapiens, UniProt Q14451); binding).
With `N[C@@H](Cc1c[nH]c2ccccc12)C(=O)O` the Kd was 90 ± 20 nM (Transcription attenuation protein MtrB, Δ71 truncation (mtrB, Geobacillus stearothermophilus, UniProt Q9X6J6); isothermal titration calorimetry; 25 °C, one-site model).
With `CSCC[C@H](NC(=O)CNC(=O)[C@H](Cc1ccccc1)NC(=O)[C@H](CC(=O)O)NC(=O)CNC(=O)c1ccc2c(c1)C(=O)OC21c2ccc(N(C)C)cc2Oc2cc(N(C)C)ccc21)C(=O)N[C@@H](CO)C(=O)N[C@@H](CCCNC(=N)N)C(=O)N[C@@H](CC(=O)O)C(=O)N[C@H](C(=O)N[C@@H](Cc1ccc(OP(=O)(O)O)cc1)C(=O)N[C@@H](CO)C(=O)N[C@H](C(=O)N[C@@H](CC(=O)O)C(=O)N[C@@H](Cc1ccc(O)cc1)C(=O)N[C@@H](Cc1ccc(O)cc1)C(=O)N[C@@H](CCCNC(=N)N)C(=O)N[C@H](C(=O)N[C@@H](CC(=O)O)C(=O)O)C(C)C)[C@@H](C)O)C(C)C` the Kd was 746 nM (Tyrosine-protein kinase JAK3, SH2 domain (JAK3, Homo sapiens, UniProt P52333); binding).
`CC[C@@]1(O)C[C@H](O[C@H]2C[C@H](N(C)C)[C@H](O[C@H]3C[C@H](O)[C@H](O[C@H]4CCC(=O)[C@H](C)O4)[C@H](C)O3)[C@H](C)O2)c2c(cc3c(c2O)C(=O)c2c(O)cccc2C3=O)[C@H]1C(=O)OC` gave a Kd of 2440 ± 240 nM (Cytochrome P450 2J2 (CYP2J2, Homo sapiens, UniProt P51589); 2 min, pH 7.4).

Some of these lines once more:
With `CC[C@H](C)[C@H](NC(=O)[C@H](CC(=O)O)NC(=O)[C@H](C)NC(=O)[C@H](Cc1ccc(OP(=O)(O)O)cc1)NC(=O)[C@H](CCCCN)NC(=O)[C@@H](NC(=O)[C@H](CC(=O)O)NC(=O)CNC(=O)[C@H](CCCCN)NC(=O)[C@H](CCSC)NC(=O)[C@H](CC(=O)O)NC(=O)[C@H](CC(C)C)NC(=O)[C@H](CCSC)NC(=O)c1ccc2c(c1)C(=O)OC21c2ccc(N(C)C)cc2Oc2cc(N(C)C)ccc21)C(C)C)C(=O)N[C@@H](CCC(=O)O)C(=O)N[C@@H](CO)C(=O)N[C@@H](CO)C(=O)N[C@@H](CC(N)=O)C(=O)N[C@@H](CC(=O)O)C(=O)O` the Kd was 638 nM (Growth factor receptor-bound protein 7, SH2 domain (GRB7, Homo sapiens, UniProt Q14451); binding).
With `N[C@@H](Cc1c[nH]c2ccccc12)C(=O)O` the Kd was 90 ± 20 nM (Transcription attenuation protein MtrB, Δ71 truncation (mtrB, Geobacillus stearothermophilus, UniProt Q9X6J6); isothermal titration calorimetry; 25 °C, one-site model).
With `CSCC[C@H](NC(=O)CNC(=O)[C@H](Cc1ccccc1)NC(=O)[C@H](CC(=O)O)NC(=O)CNC(=O)c1ccc2c(c1)C(=O)OC21c2ccc(N(C)C)cc2Oc2cc(N(C)C)ccc21)C(=O)N[C@@H](CO)C(=O)N[C@@H](CCCNC(=N)N)C(=O)N[C@@H](CC(=O)O)C(=O)N[C@H](C(=O)N[C@@H](Cc1ccc(OP(=O)(O)O)cc1)C(=O)N[C@@H](CO)C(=O)N[C@H](C(=O)N[C@@H](CC(=O)O)C(=O)N[C@@H](Cc1ccc(O)cc1)C(=O)N[C@@H](Cc1ccc(O)cc1)C(=O)N[C@@H](CCCNC(=N)N)C(=O)N[C@H](C(=O)N[C@@H](CC(=O)O)C(=O)O)C(C)C)[C@@H](C)O)C(C)C` the Kd was 746 nM (Tyrosine-protein kinase JAK3, SH2 domain (JAK3, Homo sapiens, UniProt P52333); binding).
